Results of several laboratories.
Numbered parts are unrelated; each lists some results of a single study. Changes are numbered by the printed parent chain.

Sample 1 — technique: RNA Bind-n-Seq; molecule type: RNA; matrix: in vitro; concentration: 20 nM; notes: 6-mer, flanks averaged, single round; added: 150 mM LiCl; reference: input library; direction: higher = stronger binding
Target: TAR DNA-binding protein 43, full length, His tag (TARDBP, Homo sapiens, UniProt Q13148, residues 1-414)
| Sequence | 6-mer enrichment (R) |
| --- | --- |
| CCUCCC | 1.16 |
| CUCGGA | 0.892 |
| AAUUGC | 0.914 |
| AGAACU | 1.01 |
| GUUUGC | 1.25 |

Sample 2 — technique: protein-binding microarray; molecule type: double-stranded DNA, one strand shown; matrix: in vitro; concentration: 250 nM; notes: 60-bp whole probe; added: salmon DNA 0.4 mg/ml; reference: random background probes; direction: higher = stronger binding; constant ends, left off below: GCCTAGCAC … GTCTTGATTCGCTTGACGCTGCTG
Target: Interferon regulatory factor 7, full length, phosphomimetic (IRF7, Homo sapiens, UniProt Q92985, residues 1-503, S101K/S471D/S472D/S475D/S476D/S477D/S483D/S484D/S487D)
Construct (chain): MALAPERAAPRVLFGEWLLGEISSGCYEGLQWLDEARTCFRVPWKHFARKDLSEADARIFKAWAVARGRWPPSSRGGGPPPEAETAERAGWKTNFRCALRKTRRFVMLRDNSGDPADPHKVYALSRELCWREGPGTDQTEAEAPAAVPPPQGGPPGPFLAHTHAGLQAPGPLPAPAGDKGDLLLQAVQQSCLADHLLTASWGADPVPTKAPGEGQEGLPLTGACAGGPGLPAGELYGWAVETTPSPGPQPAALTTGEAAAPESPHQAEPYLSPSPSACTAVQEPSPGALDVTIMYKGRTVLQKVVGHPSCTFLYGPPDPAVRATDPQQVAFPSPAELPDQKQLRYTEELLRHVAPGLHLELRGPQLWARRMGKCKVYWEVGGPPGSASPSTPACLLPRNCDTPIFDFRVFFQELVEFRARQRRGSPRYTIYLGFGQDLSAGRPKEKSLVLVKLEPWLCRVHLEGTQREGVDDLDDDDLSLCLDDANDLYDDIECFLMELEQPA
| Sequence | log fluorescence [z-score] |
| --- | --- |
| GACGGTCTCGGTATCGTGACGTGCTAG | 1.6 |
| CACGATATCGGGTATCGAGACGTGCTA | 0.323 |
| TTAGGTCTCGGACTGGGTTGGTGCTAG | 0.275 |
| CGAGGTCTCGCTATGTTGTCGTGCTAG | 0.845 |
| GACGGACTGTGTATCGGGACGTGCTAG | -0.484 |
| TCAATTTTTTTTATCAAACTGTGCTAG | 0.46 |
| GACGGTTTTGGTCTCGGGACGTGCTAG | 1.01 |
| TTAGGACTGGGGTATCAGTTAGTGCTA | -0.487 |

Sample 3 — target: CCND3, cyclin fold, Cln2 fusion (human); technique: yeast growth competition, sequencing; matrix: yeast; notes: weak parent motif; reference: not given; direction: higher = stronger binding
Starting sequence: RBL2 docking peptide (human); STTRRRLFVENDS; partner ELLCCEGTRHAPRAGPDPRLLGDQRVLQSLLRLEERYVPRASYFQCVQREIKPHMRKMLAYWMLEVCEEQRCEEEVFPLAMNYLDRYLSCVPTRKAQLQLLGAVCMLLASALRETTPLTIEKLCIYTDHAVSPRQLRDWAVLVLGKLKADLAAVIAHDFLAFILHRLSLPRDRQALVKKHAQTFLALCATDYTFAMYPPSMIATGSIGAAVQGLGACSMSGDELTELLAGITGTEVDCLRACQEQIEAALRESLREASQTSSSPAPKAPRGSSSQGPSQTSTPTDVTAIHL
| Change | normalised enrichment score |
| --- | --- |
| YTTRRRLFVENDS [S1Y] | 0.14 |
| STTRRRWFVENDS [L7W] | 0.103 |
| SCTRRRLFVENDS [T2C] | 0.095 |
| STTRRRLFVENDD [S13D] | 0.169 |
| STMRRRLFVENDS [T3M] | 0.0753 |
| STTRRRLFVGNDS [E10G] | 0.0914 |
| STTRRRLQVENDS [F8Q] | 0.188 |
| STTRRRLFVENES [D12E] | 0.0452 |

Single results of other studies
| Molecule | target | test | test system | setting | scale | measurement | result |
| --- | --- | --- | --- | --- | --- | --- | --- |
| PhoQ, residues 284 288 289 292 302 303 NLCILV | PhoP, residues 12 14 15 18 19 NMSFL (Escherichia coli, UniProt P23836) | Sort-seq, measured: YFP reporter | E. coli | PhoQ-PhoP variant library, added: 10 µM Mg2+ | reference: high Mg2+ state, higher = stronger signaling | fold induction | 10.6 |

Some of these lines once more (sample 2):
| Sequence | log fluorescence [z-score] |
| --- | --- |
| TCAATTTTTTTTATCAAACTGTGCTAG | 0.46 |
| TTAGGACTGGGGTATCAGTTAGTGCTA | -0.487 |
| CGAGGTCTCGCTATGTTGTCGTGCTAG | 0.845 |
